{"data": "Published values from different studies", "Cnr2": "Cannabinoid receptor 2 (Cnr2, Mus musculus, UniProt P47936)", "STING1 H232R": "Stimulator of interferon genes protein (STING1, Homo sapiens, UniProt Q86WV6, H232R)", "note": "Each line is one published result; not all experiments were run side by side. ± marks the error that the study gave.", "sequence of UniProt P47936 (whole entry, looked up)": "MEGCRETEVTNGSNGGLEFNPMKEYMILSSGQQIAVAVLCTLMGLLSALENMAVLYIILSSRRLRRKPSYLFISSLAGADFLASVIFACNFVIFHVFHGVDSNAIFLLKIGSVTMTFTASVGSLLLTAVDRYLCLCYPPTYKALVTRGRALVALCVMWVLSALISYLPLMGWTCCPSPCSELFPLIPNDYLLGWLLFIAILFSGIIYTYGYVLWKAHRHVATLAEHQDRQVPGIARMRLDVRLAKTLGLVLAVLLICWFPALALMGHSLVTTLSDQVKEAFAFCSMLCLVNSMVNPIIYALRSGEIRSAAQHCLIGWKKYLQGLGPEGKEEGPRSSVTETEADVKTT", "sequence of UniProt Q86WV6 (whole entry, unmodified, looked up)": "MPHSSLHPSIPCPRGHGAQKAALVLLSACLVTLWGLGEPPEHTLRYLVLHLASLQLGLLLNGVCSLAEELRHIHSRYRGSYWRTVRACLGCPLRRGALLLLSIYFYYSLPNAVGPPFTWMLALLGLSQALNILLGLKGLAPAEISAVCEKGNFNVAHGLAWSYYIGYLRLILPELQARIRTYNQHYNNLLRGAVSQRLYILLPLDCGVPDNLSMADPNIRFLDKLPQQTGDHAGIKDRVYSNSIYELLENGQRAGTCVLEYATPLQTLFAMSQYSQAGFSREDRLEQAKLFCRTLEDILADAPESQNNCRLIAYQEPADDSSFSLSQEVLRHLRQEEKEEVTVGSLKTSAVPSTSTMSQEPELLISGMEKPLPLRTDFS", "sequence of UniProt Q8NHB7 (whole entry, unmodified, looked up)": "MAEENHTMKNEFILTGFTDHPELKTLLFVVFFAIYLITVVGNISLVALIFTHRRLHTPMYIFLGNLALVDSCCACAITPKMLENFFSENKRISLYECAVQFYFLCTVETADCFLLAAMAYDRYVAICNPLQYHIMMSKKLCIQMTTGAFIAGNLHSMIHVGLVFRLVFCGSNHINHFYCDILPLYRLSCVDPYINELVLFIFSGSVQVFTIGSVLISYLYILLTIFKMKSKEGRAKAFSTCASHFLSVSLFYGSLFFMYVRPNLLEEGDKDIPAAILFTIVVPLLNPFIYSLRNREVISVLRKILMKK", "sequence of UniProt Q8N4C8 (whole entry, looked up)": "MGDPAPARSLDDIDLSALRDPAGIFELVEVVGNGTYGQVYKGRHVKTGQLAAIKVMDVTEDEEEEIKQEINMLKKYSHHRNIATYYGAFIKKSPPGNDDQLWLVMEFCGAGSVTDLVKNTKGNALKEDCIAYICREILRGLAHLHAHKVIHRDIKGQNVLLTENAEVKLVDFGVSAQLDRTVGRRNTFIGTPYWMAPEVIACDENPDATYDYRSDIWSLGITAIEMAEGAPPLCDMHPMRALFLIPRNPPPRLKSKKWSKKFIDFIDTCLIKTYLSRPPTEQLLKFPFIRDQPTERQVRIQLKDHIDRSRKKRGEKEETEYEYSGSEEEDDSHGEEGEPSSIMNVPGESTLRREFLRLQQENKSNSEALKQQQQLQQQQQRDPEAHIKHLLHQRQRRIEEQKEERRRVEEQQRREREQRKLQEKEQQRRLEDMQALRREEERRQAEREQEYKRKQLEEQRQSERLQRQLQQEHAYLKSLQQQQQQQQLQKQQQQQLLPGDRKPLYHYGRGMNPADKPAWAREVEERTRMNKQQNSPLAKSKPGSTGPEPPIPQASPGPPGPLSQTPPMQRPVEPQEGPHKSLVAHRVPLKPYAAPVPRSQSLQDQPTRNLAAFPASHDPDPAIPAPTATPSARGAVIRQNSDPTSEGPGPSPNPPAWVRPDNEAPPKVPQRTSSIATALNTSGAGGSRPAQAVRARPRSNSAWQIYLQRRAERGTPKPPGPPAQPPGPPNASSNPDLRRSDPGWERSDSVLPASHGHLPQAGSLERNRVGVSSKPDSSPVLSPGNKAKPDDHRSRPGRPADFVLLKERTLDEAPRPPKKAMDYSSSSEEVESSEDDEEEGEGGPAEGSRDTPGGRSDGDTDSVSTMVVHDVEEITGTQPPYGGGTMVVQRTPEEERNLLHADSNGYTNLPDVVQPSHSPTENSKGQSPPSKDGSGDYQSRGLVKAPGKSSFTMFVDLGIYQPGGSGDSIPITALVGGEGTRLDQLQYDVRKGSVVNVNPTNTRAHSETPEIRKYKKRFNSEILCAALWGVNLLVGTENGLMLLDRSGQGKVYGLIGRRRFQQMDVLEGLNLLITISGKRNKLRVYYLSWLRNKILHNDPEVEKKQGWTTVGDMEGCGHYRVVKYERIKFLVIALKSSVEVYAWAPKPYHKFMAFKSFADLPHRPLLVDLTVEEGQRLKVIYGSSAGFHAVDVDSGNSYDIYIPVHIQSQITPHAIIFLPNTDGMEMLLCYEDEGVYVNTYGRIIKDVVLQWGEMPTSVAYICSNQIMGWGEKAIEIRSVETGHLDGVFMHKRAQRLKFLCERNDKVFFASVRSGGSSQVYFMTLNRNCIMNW", "sequence of UniProt O75762 (whole entry, unmodified, looked up)": "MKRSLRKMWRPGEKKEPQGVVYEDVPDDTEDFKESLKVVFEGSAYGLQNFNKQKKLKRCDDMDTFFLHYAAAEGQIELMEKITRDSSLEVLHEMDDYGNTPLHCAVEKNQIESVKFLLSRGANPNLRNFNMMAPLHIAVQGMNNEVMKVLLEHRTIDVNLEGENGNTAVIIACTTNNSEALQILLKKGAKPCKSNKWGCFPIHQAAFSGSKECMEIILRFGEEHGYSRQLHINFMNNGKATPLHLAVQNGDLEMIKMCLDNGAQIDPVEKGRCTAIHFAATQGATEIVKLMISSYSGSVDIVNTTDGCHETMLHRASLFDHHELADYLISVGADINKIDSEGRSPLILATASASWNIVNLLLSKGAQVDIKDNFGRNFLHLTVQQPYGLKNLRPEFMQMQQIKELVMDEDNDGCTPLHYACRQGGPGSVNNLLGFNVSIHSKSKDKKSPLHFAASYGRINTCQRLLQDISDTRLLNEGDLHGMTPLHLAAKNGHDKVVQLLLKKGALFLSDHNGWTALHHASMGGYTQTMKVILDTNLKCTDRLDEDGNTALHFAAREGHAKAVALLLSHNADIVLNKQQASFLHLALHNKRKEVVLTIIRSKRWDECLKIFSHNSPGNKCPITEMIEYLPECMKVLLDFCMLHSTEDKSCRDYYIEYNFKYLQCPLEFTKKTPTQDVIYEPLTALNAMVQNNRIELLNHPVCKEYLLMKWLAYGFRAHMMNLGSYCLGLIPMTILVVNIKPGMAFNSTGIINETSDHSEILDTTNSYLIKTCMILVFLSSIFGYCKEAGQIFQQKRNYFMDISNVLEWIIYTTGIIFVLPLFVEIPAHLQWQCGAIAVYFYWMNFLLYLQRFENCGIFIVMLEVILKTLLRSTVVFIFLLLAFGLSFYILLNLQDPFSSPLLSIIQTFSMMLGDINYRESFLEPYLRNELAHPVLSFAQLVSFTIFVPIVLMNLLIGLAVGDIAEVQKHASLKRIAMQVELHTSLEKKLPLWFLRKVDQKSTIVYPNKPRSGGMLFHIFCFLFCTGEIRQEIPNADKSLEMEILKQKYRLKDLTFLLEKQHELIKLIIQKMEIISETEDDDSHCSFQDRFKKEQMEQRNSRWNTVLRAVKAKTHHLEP", "sequence of UniProt Q9UNW8 (whole entry, looked up)": "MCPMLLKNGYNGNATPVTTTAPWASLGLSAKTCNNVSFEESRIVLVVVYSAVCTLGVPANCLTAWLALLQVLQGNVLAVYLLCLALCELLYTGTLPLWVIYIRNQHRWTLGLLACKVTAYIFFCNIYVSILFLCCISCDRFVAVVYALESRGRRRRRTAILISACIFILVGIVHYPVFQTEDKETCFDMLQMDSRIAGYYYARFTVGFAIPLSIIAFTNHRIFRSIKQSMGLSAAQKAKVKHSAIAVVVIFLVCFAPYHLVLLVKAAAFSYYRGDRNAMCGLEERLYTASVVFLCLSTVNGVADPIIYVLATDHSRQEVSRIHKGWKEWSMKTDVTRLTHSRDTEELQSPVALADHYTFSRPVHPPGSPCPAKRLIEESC", "sequence of UniProt P43220 (whole entry, unmodified, looked up)": "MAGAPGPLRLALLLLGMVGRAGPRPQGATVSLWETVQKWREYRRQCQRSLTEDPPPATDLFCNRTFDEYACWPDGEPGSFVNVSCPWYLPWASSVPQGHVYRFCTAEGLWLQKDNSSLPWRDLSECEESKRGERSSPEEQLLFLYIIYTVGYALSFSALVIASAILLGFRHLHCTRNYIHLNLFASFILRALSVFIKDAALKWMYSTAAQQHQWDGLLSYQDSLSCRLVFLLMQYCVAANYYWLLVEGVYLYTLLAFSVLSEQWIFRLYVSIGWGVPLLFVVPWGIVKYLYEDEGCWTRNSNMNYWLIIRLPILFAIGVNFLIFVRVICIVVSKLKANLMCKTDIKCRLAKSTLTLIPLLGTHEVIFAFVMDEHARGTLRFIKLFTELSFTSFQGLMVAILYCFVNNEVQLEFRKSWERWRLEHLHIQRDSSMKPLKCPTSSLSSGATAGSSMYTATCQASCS", "sequence of UniProt Q92847 (whole entry, looked up)": "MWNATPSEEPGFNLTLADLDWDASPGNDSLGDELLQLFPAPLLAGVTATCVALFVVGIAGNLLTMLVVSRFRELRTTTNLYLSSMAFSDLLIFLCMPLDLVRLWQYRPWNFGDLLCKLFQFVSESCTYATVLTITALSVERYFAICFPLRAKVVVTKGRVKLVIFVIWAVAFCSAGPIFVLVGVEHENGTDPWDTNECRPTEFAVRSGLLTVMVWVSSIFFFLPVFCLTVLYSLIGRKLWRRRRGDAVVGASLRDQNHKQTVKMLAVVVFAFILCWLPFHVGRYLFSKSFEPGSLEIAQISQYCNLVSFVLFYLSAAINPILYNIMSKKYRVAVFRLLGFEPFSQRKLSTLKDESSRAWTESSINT"}
{"SMILES": "CCOC(=O)C(CC)(CCCSCCOCCOCCN)NC(=O)c1ccc(C2CC2)c(Cc2ccc(F)cc2)n1 (racemic)", "target or system": "Cnr2", "assay": "cAMP, agonist", "endpoint": "EC50", "value": "0.045 µM"}
{"SMILES": "C=CC(=O)Nc1cccc(Cn2ncc3cnc(Nc4cnn(CCOC)c4)nc32)c1", "target or system": "PRKCH human", "assay": "binding, KINOMEscan", "conditions": "100 nM", "how to read": "lower = stronger binding", "endpoint": "percent of control", "value": "100%"}
{"SMILES": "NCC(=O)N[C@H](Cc1ccccc1)C(=O)N[C@@H](Cc1ccccc1)C(N)=O", "target or system": "uncharacterized protein (Aplysia californica, UniProt A0ABM0K1K5)", "assay": "IP1 accumulation, agonist", "system": "CHO-K1 cells, transfected", "conditions": "inactive, value is lower bound", "endpoint": "EC50", "value": "> 501 µM"}
{"SMILES": "O=C(N[C@@H](CCCCNC(=O)c1ccc([N+](=O)[O-])o1)c1nc2ccccc2[nH]1)c1ccc(-c2nnco2)cc1", "target or system": "STING1 H232R", "assay": "reporter gene, inhibitor", "system": "THP1-Dual KI-hSTING-R232", "conditions": "24 h, 1 h preincubation, with: diABZI 500 nM", "endpoint": "EC50", "value": "14.4 µM"}
{"SMILES": "CCOC(=O)C(CC)(CCCSCCOCCNC(=O)OC(C)(C)C)NC(=O)c1ccc(C2CC2)c(Cc2ccc(F)cc2)n1 (stereo not shown)", "target or system": "Cnr2", "assay": "cAMP, agonist", "endpoint": "EC50", "value": "0.015 µM"}
{"SMILES": "N=C(c1ccc([N+](=O)[O-])o1)N1CCC(NC(=O)c2noc(-c3cc(F)ccc3F)n2)(c2nc3ccccc3[nH]2)CC1", "target or system": "STING1 H232R", "assay": "reporter gene, inhibitor", "system": "THP1-Dual KI-hSTING-R232", "conditions": "24 h, 1 h preincubation, with: diABZI 500 nM", "endpoint": "EC50", "value": "3.6 µM"}
{"SMILES": "CC(C)=CCc1cc(C(=O)/C=C/c2ccc(O)cc2)c(O)cc1O", "assay": "phase I metabolism, substrate", "system": "minipig liver microsomes", "endpoint": "Km", "value": "22.4 ± 4.58 µM"}
{"SMILES": "CCCCCCCC/C=C\\CCCCCCCC(=O)OCC(O)COP(=O)(O)O (stereo not shown)", "target or system": "LPAR1 (Homo sapiens, UniProt Q92633, W271F)", "assay": "Gi activation, agonist, NanoBiT G-protein dissociation", "system": "HEK293T", "conditions": "W271F mutant", "endpoint": "EC50", "value": "0.0389 µM"}
{"SMILES": "CCOC(=O)C(CC)(CCCSCCOCCNc1ccc([N+](=O)[O-])c2nonc12)NC(=O)c1ccc(C2CC2)c(Cc2ccc(F)cc2)n1 (stereo not shown)", "target or system": "Cnr2", "assay": "cAMP, agonist", "endpoint": "EC50", "value": "0.181 µM"}
{"SMILES": "Cn1c(C2(NC(=O)c3ccc(-c4ccccc4)cc3)CCN(C(=O)c3ccc([N+](=O)[O-])o3)CC2)nc2ccccc21", "target or system": "STING1 H232R", "assay": "reporter gene, inhibitor", "system": "THP1-Dual KI-hSTING-R232", "conditions": "24 h, 1 h preincubation, with: diABZI 500 nM", "endpoint": "EC50", "value": "> 40 µM"}
{"SMILES": "CC(C)OCCOCc1ccc(OCC(O)CN(N=O)C(C)C)cc1 (stereo not shown)", "target or system": "Salmonella typhimurium", "assay": "Ames test", "system": "TA1535", "conditions": "500 µg/plate, 30 % hamster S9", "how to read": "relative to: solvent control", "endpoint": "revertant fold increase", "value": "9.9 fold"}
{"SMILES": "O=C(N[C@@H](CCNC(=O)c1ccc([N+](=O)[O-])o1)c1nc2ccccc2[nH]1)c1ccc(-c2ccc(F)cc2)o1", "target or system": "STING1 H232R", "assay": "reporter gene, inhibitor", "system": "THP1-Dual KI-hSTING-R232", "conditions": "24 h, 1 h preincubation, with: diABZI 500 nM", "endpoint": "EC50", "value": "9.4 µM"}
{"SMILES": "CCN(CC)CC#CCNc1ccnc2cc(Cl)ccc12", "target or system": "Salmonella typhimurium", "assay": "mini-Ames test", "system": "TA97a", "conditions": "500.0 µg/well, without S9", "endpoint": "revertants per well", "value": 0}
{"SMILES": "COC1CN([C@H]2CC[C@H]([C@@]3(C)Oc4c(Cl)cc(C(=O)NCc5c(SC)cc(C)[nH]c5=O)c(C)c4O3)CC2)C1", "assay": "RNA-seq, refers to: PCGF5 mouse homolog", "system": "mouse, HT-1376 xenograft, whole blood", "conditions": "dose not given", "how to read": "relative to: vehicle", "endpoint": "log2 fold change", "value": 0.291}
{"SMILES": "CNS(=O)(=O)Nc1nccc(Cc2c(C)c3ccc(Oc4ncccc4F)cc3oc2=O)c1F", "target or system": "SK-MEL-30", "assay": "cell viability", "conditions": "7 days", "endpoint": "IC50", "value": "0.00279 µM"}
{"SMILES": "CCOC(=O)C(CC)(CCCSCCOCCOCCN=[N+]=[N-])NC(=O)c1ccc(C2CC2)c(Cc2ccc(F)cc2)n1 (stereo not shown)", "target or system": "Cnr2", "assay": "cAMP, agonist", "endpoint": "EC50", "value": "0.0054 µM"}
{"SMILES": "Nc1ncc(-c2cc(-c3cnn(CC(F)(F)F)c3)ncc2F)nc1C(=O)NC1CNCC(F)C1 (stereo not shown)", "target or system": "SLK", "assay": "KINOMEscan", "conditions": "1 µM", "how to read": "relative to: DMSO control", "endpoint": "remaining binding", "value": "22%"}
{"SMILES": "COc1cc(C2C(NC(=O)c3ccc(NC(=O)OC(C)(C)C)cc3)(C(=O)O)C(c3ccc(OC(=O)c4cccs4)c(OC)c3)C2(NC(=O)c2ccc(NC(=O)OC(C)(C)C)cc2)C(=O)O)ccc1OC(=O)c1cccs1 (stereo not shown)", "target or system": "GLP1R (Homo sapiens, UniProt P43220, V229A)", "assay": "cAMP, agonist", "endpoint": "EC50", "value": "0.195 µM"}
{"SMILES": "CCOC(=O)[C@](CC)(CCCSCCOCCOCCNC(=O)OC(C)(C)C)NC(=O)c1ccc(C2CC2)c(Cc2ccc(F)cc2)n1", "target or system": "Cnr2", "assay": "cAMP, agonist", "endpoint": "EC50", "value": "0.019 µM"}
{"SMILES": "CC1CCc2nccnc21 (stereo not shown)", "target or system": "OR5K1 (Homo sapiens, UniProt Q8NHB7)", "assay": "cAMP, agonist", "endpoint": "EC50", "value": "> 1500 µM"}
{"SMILES": "Cc1ncsc1-c1ccc(C(C)NC(=O)C2CC(O)CN2C(=O)C(NC(=O)CCCCCCCCCCN2CCCC(Nc3ncc(Cl)c(Nc4ccccc4S(=O)(=O)C(C)C)n3)C2)C(C)(C)C)cc1 (stereo not shown)", "target or system": "22Rv1", "assay": "RNA-seq, refers to: ZNF362 mRNA", "conditions": "concentration not given", "how to read": "relative to: DMSO", "endpoint": "log2 fold change", "value": -1.42}
{"SMILES": "O=C(NC[C@@H](Cc1ccc(F)cc1)N1CCC(O)(C(F)(F)F)CC1)C1(c2ccc(Cl)cc2)CCCC1", "target or system": "TRPA1 (Homo sapiens, UniProt O75762, I905A)", "endpoint": "EC50", "value": "0.016 µM"}
{"SMILES": "CC1=NC(C)C(C)S1 (stereo not shown)", "target or system": "OR5K1 (Homo sapiens, UniProt Q8NHB7, A2T/I280V/T15M/V39I/Y193C)", "assay": "cAMP, agonist", "system": "HEK293 transfected with OR5K1", "endpoint": "EC50", "value": "901 ± 194 µM"}
{"SMILES": "O=S(=O)(c1ccc2c(c1)OCO2)n1cc(CCCCN2CCC(=C(c3ccc(F)c(F)c3)c3ccc(F)c(F)c3)CC2)nn1", "target or system": "PFKL (Homo sapiens, UniProt P17858)", "assay": "enzyme activity, activator, ADP-Glo", "conditions": "2", "endpoint": "EC50", "value": "0.411 µM"}
{"SMILES": "O=C(N[C@@H](CCCCNC(=O)c1ccc([N+](=O)[O-])o1)c1nc2ccccc2[nH]1)c1ccc(-c2ccccc2)cn1", "target or system": "STING1 H232R", "assay": "reporter gene, inhibitor", "system": "THP1-Dual KI-hSTING-R232", "conditions": "24 h, 1 h preincubation, with: diABZI 500 nM", "endpoint": "EC50", "value": "3.2 µM"}
{"SMILES": "CN1CCCNC(=O)c2cccc(c2)C(=O)NCCCN(C)CCCNc2cccc3c2C(=O)c2cccc(c2C3=O)NCCC1", "target or system": "SAS", "assay": "RNA-Seq, refers to: GTF2E2 mRNA", "conditions": "1 µM, 6 h", "how to read": "relative to: untreated cells", "endpoint": "log2 fold change", "value": -1.39}
{"SMILES": "O=C(N[C@@H](CCCCNC(=O)c1ccc([N+](=O)[O-])o1)c1nc2ccccc2[nH]1)c1ccc(-c2cnco2)cc1", "target or system": "STING1 H232R", "assay": "reporter gene, inhibitor", "system": "THP1-Dual KI-hSTING-R232", "conditions": "24 h, 1 h preincubation, with: diABZI 500 nM", "endpoint": "EC50", "value": "6.6 µM"}
{"SMILES": "Cc1nn(-c2cccc(N)c2)c(=O)c2cnc(Nc3ccc(N4CCNCC4)cc3)nc12", "target or system": "MINK1 (Homo sapiens, UniProt Q8N4C8)", "assay": "kinase activity, inhibitor, SelectScreen kinase profiling", "endpoint": "IC50", "value": "> 10 µM"}
{"SMILES": "CC#Cc1ccc(C(=O)N[C@@H](CCNC(=O)c2ccc([N+](=O)[O-])o2)c2nc3ccccc3[nH]2)cc1", "target or system": "STING1 H232R", "assay": "reporter gene, inhibitor", "system": "THP1-Dual KI-hSTING-R232", "conditions": "24 h, 1 h preincubation, with: diABZI 500 nM", "endpoint": "EC50", "value": "8.6 µM"}
{"SMILES": "O=C1C2=C(CCN(Cc3ccccc3)C2)N2CCN=C2N1Cc1ccc(C(F)(F)F)cc1", "target or system": "GPR132 (Homo sapiens, UniProt Q9UNW8)", "assay": "agonist", "endpoint": "EC50", "value": "0.405 µM"}
{"SMILES": "COc1ccc(C(=O)c2c(C(=O)NCCCN(C)C)oc3ccc(Cl)cc3c2=O)cc1OC", "target or system": "GHSR (Homo sapiens, UniProt Q92847)", "assay": "Gαi2 dissociation, agonist, TRUPATH BRET", "system": "HEK293T", "endpoint": "EC50", "value": "2.51 µM"}
{"note": "A few entries again:"}
{"SMILES": "COc1cc(C2C(NC(=O)c3ccc(NC(=O)OC(C)(C)C)cc3)(C(=O)O)C(c3ccc(OC(=O)c4cccs4)c(OC)c3)C2(NC(=O)c2ccc(NC(=O)OC(C)(C)C)cc2)C(=O)O)ccc1OC(=O)c1cccs1 (stereo not shown)", "target or system": "GLP1R (Homo sapiens, UniProt P43220, V229A)", "assay": "cAMP, agonist", "endpoint": "EC50", "value": "0.195 µM"}
{"SMILES": "CCOC(=O)[C@](CC)(CCCSCCOCCOCCNC(=O)OC(C)(C)C)NC(=O)c1ccc(C2CC2)c(Cc2ccc(F)cc2)n1", "target or system": "Cnr2", "assay": "cAMP, agonist", "endpoint": "EC50", "value": "0.019 µM"}
{"SMILES": "CC1CCc2nccnc21 (stereo not shown)", "target or system": "OR5K1 (Homo sapiens, UniProt Q8NHB7)", "assay": "cAMP, agonist", "endpoint": "EC50", "value": "> 1500 µM"}
